Measurements pooled from the literature.
Each line is one published result; not all experiments were run side by side. Values joined by “and” are separate records of one study, mostly repeats; a detail may differ.

Molecule	tested on	assay	test system	conditions	measurement	result
env gp41 postfusion six-helix bundle (HIV-1)	itself	crystal structure	–	–	subunits per oligomer	3
HIV-1 capsid CTD T188C, C188-C188 disulfide dimer (HIV-1)	itself	SEC-MALS	–	oxidised disulfide	subunits per oligomer	2
UL10 (duck plague virus)	itself	western blot	–	–	subunits per oligomer	3
MPER/GlpF (HIV-1/Escherichia coli)	itself	negative stain EM	–	–	subunits per oligomer	4
rubrerythrin (Burkholderia pseudomallei, UniProt Q3JK21)	itself	SEC	–	–	subunits per oligomer	2
NA head domain (Influenza A virus H1N1)	itself	cryo-EM	–	–	subunits per oligomer	4
integrase mature (HIV-1)	itself	negative stain electron microscopy	–	–	subunits per oligomer	16
integrase catalytic core domain F185H (HIV-1)	itself	native MS	–	–	subunits per oligomer	2
PR2 mature protease D25N (HIV-2)	itself	SEC-MALS	–	–	subunits per oligomer	2
HA soluble ectodomain, foldon (influenza A virus H3N2)	itself	SEC	–	–	subunits per oligomer	3
HA ectodomain (influenza A virus H5N8)	itself	cryo-EM	–	–	subunits per oligomer	6
comFB (Vibrio cholerae)	itself	SEC-MALS	–	–	subunits per oligomer	2
F ectodomain (Hendra virus)	itself	cryo-EM	–	–	subunits per oligomer	6
S ectodomain, GCN4 trimerization motif R717S (Murine hepatitis virus)	itself	native MS	–	–	subunits per oligomer	3
US6/Ighm gD (Herpes simplex virus-2/Mus musculus)	itself	SEC	–	–	subunits per oligomer	15.2
APHGVVFLHVTYVPA	human CD4 T cells	AIM	peptide	–	responding donors	7%
neuraminidase N2 ectodomain tetramer (influenza A virus H3N2 A/Switzerland/9715293/2013)	itself	cryo-EM	–	–	subunits per oligomer	4
NP (influenza A virus)	itself	SEC	–	–	subunits per oligomer	4
AYSNNSIAIPTNFTI	human CD4 T cells	AIM	peptide	–	responding donors	8%
RSV F/foldon soluble ectodomain F488W (respiratory syncytial virus)	itself	SEC	–	–	subunits per oligomer	3
Spike receptor binding domain (SARS-CoV-2)	itself	SEC-MALS	–	–	subunits per oligomer	550 monomers per nanoparticle
gamma-KTx 2.2 (Mesobuthus martensii)	itself	crystal structure	–	–	subunits per oligomer	4
NP (UniProt P03466)	itself	negative-stain electron microscopy	–	–	subunits per oligomer	6 protomers per ring and 4 protomers per ring and 7 protomers per ring

For quick reference, copied from above:
Molecule	tested on	assay	test system	conditions	measurement	result
NA head domain (Influenza A virus H1N1)	itself	cryo-EM	–	–	subunits per oligomer	4
integrase mature (HIV-1)	itself	negative stain electron microscopy	–	–	subunits per oligomer	16
